Experimental data of several laboratories.
Each numbered part is a random draw from the data of one study; scales do not carry over between parts.

Block 1 — technique: protein-binding microarray; molecule type: double-stranded DNA, one strand shown; medium: in vitro; concentration: 940 nM top; setting: 60-bp whole probe; together with: salmon DNA 0.4 mg/ml; baseline: random background probes; reading: higher = stronger binding; shared flanks, not repeated: GCCTAGCAC … GTCTTGATTCGCTTGACGCTGCTG
Target: Interferon regulatory factor 5, full length, phosphomimetic (IRF5, Homo sapiens, UniProt Q13568-2, residues 1-514, S451D/S453D/S456D/S462D)
| Sequence | fitted relative affinity |
| --- | --- |
| GACGAACTGAGTTCCGAGACGTGCTAG | -0.162 z-score |
| CTAGGTCTCGGTATCGGTTAGTGCTAG | 6.22 z-score |
| GACGGTATCGGGACAGGGGACGTGCTA | 3.17 z-score |
| GACGGTCACGGTCTCGGGACGTGCTAG | -0.09 z-score |
| CCACTGCAAAAACATCCTGGGTGCTAG | 0.142 z-score |
| GACGGACTGGGGTATCGGGACGTGCTA | 0.409 z-score |
| GACGGACTGGACACTGGGGCCGTGCTA | -0.601 z-score |
| TACGAACTGAGTATCGAGACGTGCTAG | 1.7 z-score |
| GACGGCCTGGACTATCGGGACGTGCTA | -0.8 z-score |
| GACGGACTGCTTATCTTGACGTGCTAG | -0.277 z-score |
| CCTTTTATGGTATTTTTTTCGTGCTAG | 1.17 z-score |
| GACGGTTTCGGGTTTCGCGACGTGCTA | 8.55 z-score |
| ATAAAAATCTTTGTTGGAGGGGTGCTA | 0.55 z-score |
| TTAGATATCGGGTTGCGATTAGTGCTA | 0.536 z-score |
| TTAGGTCTCGGTTTCGGTGAGTGCTAG | 8.41 z-score |
| TTAGGTTGCCTTCTCCTTTAGTGCTAG | 0.172 z-score |
| TACAGGATGGTTTTCAGAGAGTGCTAG | -0.102 z-score |
| CACGGTATCGGTTTCGGGACGTGCTAG | 9.29 z-score |
| TTAGGTATCGGAGTGGGTTAGTGCTAG | 3.04 z-score |

Block 2 — technique: competition protein-binding microarray; molecule type: double-stranded DNA, one strand shown; medium: in vitro; concentration: 2 µM; together with: Pho4 competitor, 0.05 µM; reading: higher = stronger binding; shared flanks, not repeated: … GTCTTGATTCGCTTGACGCTGCTG
Target: Centromere-binding protein 1, full length, His-tagged (CBF1, Saccharomyces cerevisiae, UniProt P17106, residues 1-351)
Sequence of UniProt P17106 (whole entry, looked up): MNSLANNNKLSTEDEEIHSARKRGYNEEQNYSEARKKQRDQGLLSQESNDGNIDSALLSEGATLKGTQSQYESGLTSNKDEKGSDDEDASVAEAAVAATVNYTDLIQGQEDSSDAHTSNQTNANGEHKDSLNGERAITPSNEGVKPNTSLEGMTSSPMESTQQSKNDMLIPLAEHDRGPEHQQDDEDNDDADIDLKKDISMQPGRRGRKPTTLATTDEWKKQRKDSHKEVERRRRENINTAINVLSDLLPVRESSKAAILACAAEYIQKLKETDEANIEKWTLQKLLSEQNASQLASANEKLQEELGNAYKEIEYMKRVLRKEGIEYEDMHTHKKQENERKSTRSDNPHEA
Setting: whole 60-bp probe, lowest competitor level
| Sequence | fluorescence intensity [a.u.] |
| --- | --- |
| TTTCATTCAGACCAACACGTGGTGAATTCACATAGT | 1350 |
| CTTTTAGTAAACCGTCACGTGCAAAAGATTCTTTAG | 7160 |
| TCATTGTTACAGCCGCCCGTGGCCGTGTTCCACGGA | 52.4 |
| AAAAGTTTGTAGCCACTCGTGAAGTTCTCTGTATGT | 99 |
| CTTGCAGCTTTTTCTTTAAGGTAAAAATCATTTTGG | 70.3 |
| AATTGAGAGGGTTTTCACGGGTAGTGGGCACAATGT | 71.2 |
| AAATTACTAAGTTTTCACGTGTTGTACCCCGTATGA | 1020 |
| CATACCCAACCTTGACACGTGGGTGAAGATATTTGT | 844 |
| AATTCTGGAATACTCCACGTGACTCGTATCCGAAAA | 3750 |
| AAAGCGGTAATTTTTCACGTGCGCTCACATATCTAT | 1070 |
| CTTCTGTAAATTTGGCTAGTGGGTGGACGCGCCCCG | 73.4 |
| CTGAAAGAGAAATTGTCCGTGACGAAAAGGAAAAAG | 96.6 |
| AAAGCGGTAATTTGGACAGTGGGTGCAGATATCTAT | 74.8 |
| ATTTTCTCTGATTTTCTCGTGCGGACAATAAGTAAA | 90.6 |
| CTAACGAAGGTTTGTGCGGTGGGTGACAAGCCAAGT | 62.4 |
| TGTAGTTAAACAGTCCACGTGTATTTGACTGCAGTA | 1100 |
| AAATTACTAAGTTGTCACATTACTTACCCCGTATGA | 125 |
| CGTCCTAGCGATTATCACGTGTTTTCCATGAGGAAG | 4630 |
| TGCGCAACAACTTGTCACACAACTTTATGTCTAGAA | 103 |

Block 3 — technique: RNA Bind-n-Seq; molecule type: RNA; medium: in vitro; concentration: 365 nM; baseline: no-protein control; reading: higher = stronger binding
Target: RNA binding protein fox-1 homolog 2, RRM domain, GST-SBP tag (RBFOX2, Homo sapiens, UniProt O43251-10, residues 100-194)
Setting: natural RNA segment, single round, ends assumed
Shared flanks, not repeated: GGGAGUUCUACAGUCCGACGAUC … UGGAAUUCUCGGGUGCCAA
| Sequence | RBNS enrichment (R) |
| --- | --- |
| CAUGUUGCUUUCAGAGAGGUCAACAUUAAAAUACUGAGACAGGACAGAAUGUGUUCUUUGUCCUUUUCCAGCCCUGCUCUUCUCUGGGAAGAUACAGGAGUCUGCCACCU | 0.363 |
| UUGCUUUGGCUGUCGUCUUCUGCCGUGUGCCAGAUGAGCUUGUGAUCUGGGAAGCCGGGGCACCCCCGUUUUGUUUCUCUGGGCGGUUGUGGCAGCUGAAGGCGGACGUU | 1.73 |
| UGUCUUUUUAAUAUUCUUGUGAUGUUUUCAGAGCCGCUGUAGGUCUCUUCUUGCAUGUCCACAGUAAUGUAUUUGUGGUUUUUAUUUUGAACGCUUGCUUUUAGAGAGAA | 123 |
| AGGGAGCUACCCAGCUUCCUGUGGUACCAAGGAGUUAUUUUGGAUGAUUAGAAGCACAGAAUGAUCAGGCCUUUAGAGCGAUGGAAUGGCCAUUGUCAUAGCACAGAGAU | 1.09 |
| AUGCUAAUGUUGAUGACAGAAUUUAUUUGGUUGCCUUGUGUGUUAAUUGAAUGCAUACCUAAUUGUAAAAUUUUUUUAUUUACAACAUUGGAAAUUCAGAAGUUAAUGUU | 1.46 |
| UCUCUGUGGAGACUAAUUUUUUCCCCUUUUGCCAAAAGCAGUCCUUCCCAAAUUAACAAAGCAAACUGAAAUAAUACCUUGAAUAACAGGUUGCCUGUGGUCUCUGUCAU | 0.708 |
| UACCUUUUUAGGCCCCUGUAACUUCCCACCUUUAAACUGCCCAGAAGGCAUGCCUCUCCCACAGGAAGAGGGGAGCAGACAGGGAAAUCUGCCUACCAAGAGGGGUGUGU | 0.418 |
| CCCCAGAGGCCGAGCAGGGAGGGAGUGGAGCUGAGCCCCUGAAAUCCUGCACGUAGCUGAGUGAGCUUAAGCCUUUAGUUUGGGGUGUGAAUAGGGAUCUGUGGUAGCCA | 6.36 |

Block 4 — technique: universal PBM; molecule type: double-stranded DNA, one strand shown; medium: in vitro; concentration: 600 nM; reading: higher = stronger binding
Target: Sal-like protein 4, full length isoform A (SALL4, Homo sapiens, UniProt Q9UJQ4, residues 1-1053)
Sequence of UniProt Q9UJQ4 (whole entry, looked up): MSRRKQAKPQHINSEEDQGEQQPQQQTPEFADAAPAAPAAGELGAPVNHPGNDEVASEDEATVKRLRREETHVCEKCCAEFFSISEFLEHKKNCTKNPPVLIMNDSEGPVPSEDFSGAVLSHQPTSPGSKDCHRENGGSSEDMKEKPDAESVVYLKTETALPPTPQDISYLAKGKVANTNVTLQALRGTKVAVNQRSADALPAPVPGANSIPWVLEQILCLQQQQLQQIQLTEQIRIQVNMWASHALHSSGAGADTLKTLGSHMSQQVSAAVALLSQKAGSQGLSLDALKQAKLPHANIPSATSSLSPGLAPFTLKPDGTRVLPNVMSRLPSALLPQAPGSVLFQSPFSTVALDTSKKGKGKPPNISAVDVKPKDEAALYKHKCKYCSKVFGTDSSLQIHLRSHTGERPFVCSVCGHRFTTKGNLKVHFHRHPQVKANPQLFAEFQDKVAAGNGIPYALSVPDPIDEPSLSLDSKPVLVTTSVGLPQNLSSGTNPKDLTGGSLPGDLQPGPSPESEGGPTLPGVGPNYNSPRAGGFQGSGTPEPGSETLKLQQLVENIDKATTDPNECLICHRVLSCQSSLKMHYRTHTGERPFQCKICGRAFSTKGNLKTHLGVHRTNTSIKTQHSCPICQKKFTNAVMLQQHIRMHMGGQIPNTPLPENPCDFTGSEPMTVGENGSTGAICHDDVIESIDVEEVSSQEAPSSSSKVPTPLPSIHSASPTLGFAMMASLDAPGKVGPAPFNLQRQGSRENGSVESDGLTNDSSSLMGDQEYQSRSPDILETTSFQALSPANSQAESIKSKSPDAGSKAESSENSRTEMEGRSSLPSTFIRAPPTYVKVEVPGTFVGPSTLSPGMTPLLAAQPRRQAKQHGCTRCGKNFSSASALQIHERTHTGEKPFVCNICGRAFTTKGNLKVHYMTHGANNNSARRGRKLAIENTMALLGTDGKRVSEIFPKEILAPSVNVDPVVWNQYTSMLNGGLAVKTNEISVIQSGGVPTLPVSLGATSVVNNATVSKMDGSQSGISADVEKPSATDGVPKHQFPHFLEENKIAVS
Setting: 8-mer, flanks averaged, mean of replicates
| Sequence | E-score |
| --- | --- |
| CAGTGCCC | -0.287 |
| TTATAGAA | 0.334 |
| AGGAAGAC | -0.068 |
| CGACCGCA | -0.0878 |
| GCCGACAA | -0.149 |
| AAACGCAG | 0.0153 |
| CGAGCAAA | -0.102 |
| ATTCCCCG | 0.00717 |
| GCCCCGTA | -0.266 |
| ACCATGTC | 0.0619 |
| ACCCCAAG | -0.249 |
| CTTGCGAC | -0.183 |
| AACCTTAT | 0.147 |
| ACTGGGAC | -0.0757 |
| AAACCAGT | 0.0637 |
| ATAGGAAG | 0.148 |
| CCCTGTAC | -0.243 |
